Results pooled from the literature.
Compare with care: the assays were run in different laboratories. ± marks the error that the study gave.
Ricin A chain: Ricin, A chain (Ricinus communis, UniProt P02879)
Ache: Acetylcholinesterase (Ache, Mus musculus, UniProt P21836)
OPRK1: Kappa-type opioid receptor (OPRK1, Homo sapiens, UniProt P41145)

Protein sequences, listed by entry. Tags and fused reporters are not part of them. Residues count along the entry.
UniProt P21836, whole entry, looked up: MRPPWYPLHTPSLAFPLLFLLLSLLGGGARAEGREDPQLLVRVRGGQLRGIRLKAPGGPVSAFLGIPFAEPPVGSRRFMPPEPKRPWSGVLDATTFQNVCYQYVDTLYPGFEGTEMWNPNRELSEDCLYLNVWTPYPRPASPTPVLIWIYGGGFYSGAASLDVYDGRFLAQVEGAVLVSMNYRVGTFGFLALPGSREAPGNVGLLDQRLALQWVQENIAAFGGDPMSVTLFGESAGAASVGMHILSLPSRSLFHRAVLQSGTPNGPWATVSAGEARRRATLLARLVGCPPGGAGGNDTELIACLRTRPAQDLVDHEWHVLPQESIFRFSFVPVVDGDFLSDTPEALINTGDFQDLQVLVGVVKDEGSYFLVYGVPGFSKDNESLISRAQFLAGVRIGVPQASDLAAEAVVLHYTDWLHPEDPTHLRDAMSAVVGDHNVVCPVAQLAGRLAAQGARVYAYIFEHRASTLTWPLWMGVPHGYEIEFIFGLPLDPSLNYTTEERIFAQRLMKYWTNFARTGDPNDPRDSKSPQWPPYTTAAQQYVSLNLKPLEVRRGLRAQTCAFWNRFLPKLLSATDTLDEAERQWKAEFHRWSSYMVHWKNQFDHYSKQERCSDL
UniProt P41145, whole entry: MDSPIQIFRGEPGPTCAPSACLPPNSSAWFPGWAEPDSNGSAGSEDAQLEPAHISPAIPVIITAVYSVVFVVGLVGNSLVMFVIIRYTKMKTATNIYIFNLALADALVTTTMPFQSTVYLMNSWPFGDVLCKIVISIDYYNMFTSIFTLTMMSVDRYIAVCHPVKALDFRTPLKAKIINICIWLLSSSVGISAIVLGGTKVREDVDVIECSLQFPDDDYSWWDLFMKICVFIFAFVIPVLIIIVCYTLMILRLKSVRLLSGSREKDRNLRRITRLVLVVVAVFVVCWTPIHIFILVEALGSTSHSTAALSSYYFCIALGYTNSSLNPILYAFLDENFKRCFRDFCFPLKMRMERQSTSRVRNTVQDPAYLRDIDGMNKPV
UniProt P22303, 32-614 limits assumed: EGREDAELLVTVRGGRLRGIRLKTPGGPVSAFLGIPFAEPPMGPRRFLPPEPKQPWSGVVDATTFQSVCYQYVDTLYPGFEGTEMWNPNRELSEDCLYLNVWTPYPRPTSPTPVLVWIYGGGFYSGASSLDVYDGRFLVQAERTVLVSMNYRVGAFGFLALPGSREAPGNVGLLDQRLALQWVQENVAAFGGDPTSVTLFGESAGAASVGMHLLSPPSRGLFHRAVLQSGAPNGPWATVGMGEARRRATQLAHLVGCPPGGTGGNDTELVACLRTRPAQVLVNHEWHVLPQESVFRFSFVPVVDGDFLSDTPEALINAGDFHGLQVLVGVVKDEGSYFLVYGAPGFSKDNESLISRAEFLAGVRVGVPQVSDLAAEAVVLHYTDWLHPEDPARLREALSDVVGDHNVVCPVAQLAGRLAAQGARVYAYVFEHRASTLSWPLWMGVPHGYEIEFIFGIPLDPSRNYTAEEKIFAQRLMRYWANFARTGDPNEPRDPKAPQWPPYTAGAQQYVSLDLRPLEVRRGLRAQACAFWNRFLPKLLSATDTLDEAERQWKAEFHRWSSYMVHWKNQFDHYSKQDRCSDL
UniProt P22303, whole entry, looked up: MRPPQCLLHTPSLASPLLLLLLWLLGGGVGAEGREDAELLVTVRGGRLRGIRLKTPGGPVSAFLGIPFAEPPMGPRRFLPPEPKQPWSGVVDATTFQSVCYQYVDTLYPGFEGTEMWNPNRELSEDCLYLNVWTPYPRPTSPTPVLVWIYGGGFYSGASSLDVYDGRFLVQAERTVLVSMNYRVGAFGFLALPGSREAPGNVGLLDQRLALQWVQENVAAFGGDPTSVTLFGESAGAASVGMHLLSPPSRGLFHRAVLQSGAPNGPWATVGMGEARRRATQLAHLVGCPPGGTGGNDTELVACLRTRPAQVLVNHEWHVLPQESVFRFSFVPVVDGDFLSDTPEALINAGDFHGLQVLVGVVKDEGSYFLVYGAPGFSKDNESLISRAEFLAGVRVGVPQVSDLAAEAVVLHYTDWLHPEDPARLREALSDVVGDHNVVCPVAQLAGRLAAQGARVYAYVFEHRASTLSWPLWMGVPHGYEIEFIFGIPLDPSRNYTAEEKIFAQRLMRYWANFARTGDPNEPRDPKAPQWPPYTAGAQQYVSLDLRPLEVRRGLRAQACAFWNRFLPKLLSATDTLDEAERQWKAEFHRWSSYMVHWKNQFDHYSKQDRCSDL
UniProt Q9GZZ6, 25-450 limits assumed: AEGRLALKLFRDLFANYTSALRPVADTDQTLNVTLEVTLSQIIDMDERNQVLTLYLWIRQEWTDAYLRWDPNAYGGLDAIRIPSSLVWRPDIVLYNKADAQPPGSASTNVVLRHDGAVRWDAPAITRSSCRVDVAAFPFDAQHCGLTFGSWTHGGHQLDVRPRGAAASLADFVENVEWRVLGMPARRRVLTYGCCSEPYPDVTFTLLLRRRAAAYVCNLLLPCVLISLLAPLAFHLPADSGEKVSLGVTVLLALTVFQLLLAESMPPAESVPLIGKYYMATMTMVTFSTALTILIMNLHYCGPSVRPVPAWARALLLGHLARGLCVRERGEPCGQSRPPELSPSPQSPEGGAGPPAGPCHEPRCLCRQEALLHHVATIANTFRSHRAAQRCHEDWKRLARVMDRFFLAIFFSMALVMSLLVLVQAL
UniProt Q9UGM1, 26-479 limits assumed: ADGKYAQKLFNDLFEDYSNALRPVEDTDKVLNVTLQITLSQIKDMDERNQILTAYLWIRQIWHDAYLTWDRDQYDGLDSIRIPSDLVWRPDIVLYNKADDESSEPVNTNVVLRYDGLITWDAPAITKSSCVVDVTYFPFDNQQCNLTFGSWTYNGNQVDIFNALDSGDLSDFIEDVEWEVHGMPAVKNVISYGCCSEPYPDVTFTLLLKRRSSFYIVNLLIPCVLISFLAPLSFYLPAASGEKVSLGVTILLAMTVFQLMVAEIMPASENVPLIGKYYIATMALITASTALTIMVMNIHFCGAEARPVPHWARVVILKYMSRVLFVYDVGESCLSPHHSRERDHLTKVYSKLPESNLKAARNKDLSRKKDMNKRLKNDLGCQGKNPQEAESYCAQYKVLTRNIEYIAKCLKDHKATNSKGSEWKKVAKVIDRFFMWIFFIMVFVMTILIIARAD
UniProt P02768, 25-609 limits assumed: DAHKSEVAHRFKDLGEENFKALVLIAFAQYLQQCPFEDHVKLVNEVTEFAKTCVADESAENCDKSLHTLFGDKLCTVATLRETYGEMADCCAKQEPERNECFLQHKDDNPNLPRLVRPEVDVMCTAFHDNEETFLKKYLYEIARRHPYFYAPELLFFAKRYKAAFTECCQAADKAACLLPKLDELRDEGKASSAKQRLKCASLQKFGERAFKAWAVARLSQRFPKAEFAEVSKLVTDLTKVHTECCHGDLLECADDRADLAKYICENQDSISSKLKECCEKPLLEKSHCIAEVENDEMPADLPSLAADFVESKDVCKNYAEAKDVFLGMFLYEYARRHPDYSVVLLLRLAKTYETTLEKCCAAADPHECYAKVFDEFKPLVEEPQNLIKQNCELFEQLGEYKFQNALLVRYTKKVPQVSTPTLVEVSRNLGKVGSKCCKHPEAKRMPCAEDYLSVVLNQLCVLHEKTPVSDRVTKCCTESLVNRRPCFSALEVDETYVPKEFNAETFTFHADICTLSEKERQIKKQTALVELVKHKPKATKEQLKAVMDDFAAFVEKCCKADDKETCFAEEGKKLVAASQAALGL

Nc1nc2nc(C(=O)NCc3ccco3)cnc2c(=O)[nH]1  ΔTm (Ricin A chain; differential scanning fluorimetry; 500 µM, pH 7.5, 2 µM protein): 2 °C
CCN(CC)Cc1cc(N)ccc1O  k2 (Acetylcholinesterase, paraoxon-inhibited (ACHE, Homo sapiens, UniProt P22303); reactivation of inhibited enzyme, reactivator; maximum rate at saturation, added: paraoxon-inhibited enzyme): ~0.14 min⁻¹
CCOP(=S)(OCC)Oc1cc(C)nc(C(C)C)n1  time to AChE recovery (Ache; enzyme activity; mice; subcutaneous, 50 mg/kg, toxicant challenge; relative to: baseline): ≤ 48 h
C[C@@H]1NC(=O)[C@H](CCCNC(=N)N)NC(=O)[C@H](CCCNC(=N)N)NC(=O)[C@H](CCCNC(=N)N)NC(=O)[C@H](CO)NC(=O)[C@@H]2CSSC[C@H](NC(=O)CN)C(=O)N[C@@H](CSSC[C@@H](C(N)=O)NC(=O)[C@H](CO)NC(=O)[C@H](CCCNC(=N)N)NC1=O)C(=O)N[C@@H](CO)C(=O)N[C@@H](Cc1c[nH]cn1)C(=O)N1CCC[C@H]1C(=O)N[C@@H](C)C(=O)N2  recovery of response (Neuronal acetylcholine receptor; alpha9/alpha10 (Homo sapiens, UniProt Q9GZZ6+Q9UGM1); ion current, antagonist; Xenopus oocytes; 10 µM, 5 min, after washout, added: acetylcholine; relative to: control): 0.5 ± 0.7%
CCOP(=S)(OCC)Oc1ccc([N+](=O)[O-])cc1  inhibition (Ache; ES1-/- mice, plasma; subcutaneous, 12.5 mg/kg, 6.0 h, toxicant challenge): 73%
O[C@H]1[C@H](O)[C@@H](O)[C@H](O)[C@@H](O)[C@H]1O  binding (Ricin A chain; SPR; 200 µM): no binding
NC(=O)c1ccc[n+]([C@@H]2O[C@H](COP(=O)([O-])OP(=O)(O)OC[C@H]3O[C@@H](n4cnc5c(N)ncnc54)[C@H](O)[C@@H]3O)[C@@H](O)[C@H]2O)c1  Kii (Inosine-5'-monophosphate dehydrogenase (Clostridium perfringens, UniProt A0A127ELD1); substrate): 13 ± 2 mM
Cc1cc(=O)oc2cc(NC(=O)CNC(=O)CNC(=O)[C@H](CCCNC(=N)N)NC(=O)[C@H](CC(C)C)NC(=O)[C@H](CCCNC(=N)N)NC(=O)OCc3ccccc3)ccc12  kcat (Replicase polyprotein 1a, papain-like protease (Severe acute respiratory syndrome-related coronavirus, UniProt P0C6U8); protease activity, substrate): 62.4 s⁻¹
Cc1cc2c(-c3ccco3)cnc(N[C@@H]3CCN(C)C[C@H]3C(=O)NC3CCCCC3)c2[nH]c1=O  inhibition (OPRK1; binding, radioligand binding; 10 µM): 28.1%
CN(C)[C@]1(c2ccccc2)CC[C@]2(CC1)OCCc1c3cc(F)ccc3[nH]c12  Emax (OPRK1; cAMP, agonist; human receptor): 98.1 ± 2.2%
CO[C@]12CC[C@@]3(C[C@@H]1[C@@](C)(O)c1ccccn1)[C@H]1Cc4ccc(O)c5c4[C@@]3(CCN1CC1CC1)[C@H]2O5  stimulation (OPRK1; G-protein activation, agonist; 10 µM; relative to: U-69593): 39 ± 12%
CC(C)OP(=S)(OC(C)C)SCCNS(=O)(=O)c1ccccc1  IC50 (ACHE (Homo sapiens, UniProt P22303); enzyme activity, inhibitor, fluorescence; human liver microsomes with NADPH): inactive
O=C1c2c(O)c(=O)ccn2N([C@@H]2c3ccccc3SCc3c2ccc(F)c3F)[C@@H]2COCCN12  thermal shift (RNA-directed RNA polymerase L, endonuclease domain (Dabie bandavirus, UniProt I0DF35, T128S); protein thermostability, thermal shift; 200 µM, added: Mn2+ 2 mM; relative to: protein with Mn2+ only): 10.5 °C
[3H]diisopropyl fluorophosphate  binding stoichiometry increase (Albumin (ALB, Homo sapiens, UniProt P02768); 19 µM, 1 h; relative to: commercial over native human albumin): ~5 fold

A few entries again:
Cc1cc(=O)oc2cc(NC(=O)CNC(=O)CNC(=O)[C@H](CCCNC(=N)N)NC(=O)[C@H](CC(C)C)NC(=O)[C@H](CCCNC(=N)N)NC(=O)OCc3ccccc3)ccc12  kcat (Replicase polyprotein 1a, papain-like protease (Severe acute respiratory syndrome-related coronavirus, UniProt P0C6U8); protease activity, substrate): 62.4 s⁻¹
CO[C@]12CC[C@@]3(C[C@@H]1[C@@](C)(O)c1ccccn1)[C@H]1Cc4ccc(O)c5c4[C@@]3(CCN1CC1CC1)[C@H]2O5  stimulation (OPRK1; G-protein activation, agonist; 10 µM; relative to: U-69593): 39 ± 12%
